Results gathered from unrelated publications.
Each numbered part is a random draw from the data of one study; scales do not carry over between parts.
Sequence of UniProt P14416 (whole entry, looked up): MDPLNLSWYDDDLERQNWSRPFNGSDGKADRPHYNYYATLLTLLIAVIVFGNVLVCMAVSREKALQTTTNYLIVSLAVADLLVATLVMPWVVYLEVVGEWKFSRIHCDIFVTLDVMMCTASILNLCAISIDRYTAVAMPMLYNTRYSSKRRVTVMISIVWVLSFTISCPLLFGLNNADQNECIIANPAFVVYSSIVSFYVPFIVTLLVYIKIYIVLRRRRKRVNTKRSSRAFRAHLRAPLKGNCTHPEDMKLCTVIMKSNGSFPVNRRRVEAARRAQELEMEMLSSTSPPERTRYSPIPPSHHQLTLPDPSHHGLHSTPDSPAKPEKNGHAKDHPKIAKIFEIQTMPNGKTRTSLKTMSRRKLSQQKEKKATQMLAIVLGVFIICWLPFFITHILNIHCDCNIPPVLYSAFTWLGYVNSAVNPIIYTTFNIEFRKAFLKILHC

Sample 1 — method: protein-binding microarray; molecule type: double-stranded DNA, one strand shown; medium: in vitro; concentration: 250 nM; setting: 60-bp whole probe; with: salmon DNA 0.4 mg/ml; baseline: random background probes; direction: higher = stronger binding; shared flanks, not repeated: GCCTAGCAC … GTCTTGATTCGCTTGACGCTGCTG
Target: Interferon regulatory factor 5, full length, phosphomimetic (IRF5, Homo sapiens, UniProt Q13568-2, residues 1-514, K96S/S451D/S453D/S456D/S462D)
Oligonucleotide	log fluorescence
TTACATTCCCCATTGTGTTGGTGCTAG	0.246 z-score
TTAGGTCTCCTTATCCTTGAGTGCTAG	-0.278 z-score
TTAAATATCAGTCTCGATTAGTGCTAG	2.49 z-score
TTAGGACTGGGTTTTCGGTTAGTGCTA	4.5 z-score
GACGATATCAATCTCGAGACGTGCTAG	1.04 z-score
GACGGTTTTGGTATCGGGACGTGCTAG	3.42 z-score
GACGAACTTGGGTATCGAGACGTGCTA	0.463 z-score
TTAGACCTGAGACTGGATTAGTGCTAG	-0.469 z-score

Sample 2 — method: RNA Bind-n-Seq; molecule type: RNA; medium: in vitro; concentration: not given; baseline: input RNA pool; direction: higher = stronger binding
Target: RING finger protein unkempt homolog, zinc fingers 1-6, GST-SBP tag (UNK, Homo sapiens, UniProt Q9C0B0, residues 30-357)
Setting: RNA with constant flanks, human and mouse sites, ends assumed
Construct (chain): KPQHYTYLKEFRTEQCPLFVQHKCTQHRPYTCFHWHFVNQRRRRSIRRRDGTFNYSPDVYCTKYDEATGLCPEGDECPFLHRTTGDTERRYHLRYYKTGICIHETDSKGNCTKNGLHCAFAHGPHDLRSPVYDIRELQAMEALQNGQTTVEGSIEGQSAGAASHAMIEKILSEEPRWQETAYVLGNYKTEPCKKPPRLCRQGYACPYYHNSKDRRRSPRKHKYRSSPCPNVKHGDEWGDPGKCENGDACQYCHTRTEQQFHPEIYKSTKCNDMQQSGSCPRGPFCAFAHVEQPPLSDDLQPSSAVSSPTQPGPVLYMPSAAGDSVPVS
Oligonucleotide	bound/input enrichment [ratio]
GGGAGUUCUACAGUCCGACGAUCGAGAAGAUUAUCUGUAAUUUAAAGCCGGCUUUAAAGCUUCGUCUUCGAUUCAUCACGCACAUUAGCAAGAUGGAGCCGGCAGUGCCACCCCAGGCCCUCAACAGCGGGUCUCCAGCACCUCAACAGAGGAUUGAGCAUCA	0.152
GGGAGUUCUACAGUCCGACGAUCUCUCAAGCAUCUUCAAAGAUACUGAAGUACUCUUUCCCAGUGGGACUAAGAACCAGCAGAACAGAUAUACUUUCUCUCAAGAUGUCUCUCCAGCAAAACUUUUCCCCAUGUCCAAGGCCUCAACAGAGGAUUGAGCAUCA	0.204
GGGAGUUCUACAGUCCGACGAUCACUAAACAGGAAGGGAUGGAAGGUCUCCUUGGGACUCUUGUUCAGCUUCUGGGUUCAGAUGAUAUAAAUGUGGUCACCUGUGCAGCUGGAAUUCUUUCUAACCUCACUUGCAAUAAUUAUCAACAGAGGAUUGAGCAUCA	0.14
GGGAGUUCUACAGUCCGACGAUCGCCAUGUGAGGGGGCUCGGGGGCCGCGGGGGGCCGGGCGCUCCCCGCCGGAGAUGAGGAAACUGAGGCUCAGAGAGGUCACAUGGCUUGCUCGAGGCCCCCCAGCCAGUGUGAACCCACACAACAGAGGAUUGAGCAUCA	0.0728
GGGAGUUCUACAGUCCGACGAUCAAUGAUGUACAUUACUGUGAAUUUUUAUACCACUCAUUUUUAAAAGGGCUGUCUUUUCAUUUUAGUUUUCCAUACUGUGGUGGUGUACACAGGAUAGAACACCCUUUUUUAAAACACAGUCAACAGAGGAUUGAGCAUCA	1.85
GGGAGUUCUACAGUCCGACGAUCAUUGUCCGAGUGUCCCCAGUUAAACGAUUGGACCCAAUAAAUCUGACUGAUCGAGGCUCUGUGACCAAGAUUUAUGGGAGAGCUUUUGUUGCCGGUGUUUUGCCACUAAAAGUAGCAAAACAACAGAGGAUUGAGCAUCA	0.139
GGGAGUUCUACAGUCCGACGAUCGACCCAGGAAGCAAAGACCCAGAAGAAGAUUACCCCAAGUUUGGACUUUUGGAUCAGGAUCUUAGUAAUAUUGGUCCUGCUUAUGACAACCAGAAACAAAGCAGUGCUGUGUCUGCUAGUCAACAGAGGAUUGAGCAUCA	0.257
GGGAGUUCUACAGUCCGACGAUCCGGCUAUUUGGUGAAGUCACCAGGCCUACUAAUUCCAAGUCUAUGAAAGUGGUGAAACUGUUUAGUGAACUGCCCUUGGCCAAGAAGAAGGAGACUUAUGAUUGGUAUCCAAAUCACCACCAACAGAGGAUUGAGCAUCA	0.131

Mixed results — HNRNPD: HNRNPD (Homo sapiens, UniProt Q14103)
Substance	tested on	assay	test system	conditions	endpoint	result
EXOSC10 (Homo sapiens, UniProt Q01780)	C1D (Homo sapiens, UniProt Q13901)	cross-linking MS	cell fractions	with: DMTMM	cross-linked residues	E23 to K46
O=C(NNS(=O)(=O)c1ccccc1)c1cc(-c2ccnnc2)ccc1F	DRD2 (Homo sapiens, UniProt P14416)	cell-free assay	–	10 µM	inhibition	14.7%
HNRNPK (Homo sapiens, UniProt P61978)	HNRNPD	cross-linking MS	–	hits only	interaction screen	cross-linked
O=C(COc1ccc(Cl)cc1Cl)OCCNC1=NS(=O)(=O)c2ccccc21	–	–	mouse, microsomes or S9	2 µM, 0.5 h	remaining compound	< 1%
HNRNPC (Homo sapiens, UniProt P07910)	HNRNPD	cross-linking MS	–	hits only	interaction screen	cross-linked
HSPD1 (Homo sapiens, UniProt P10809)	LYRM2 (Homo sapiens, UniProt Q9NU23)	cross-linking MS	–	hits only	interaction screen	cross-linked

Some of these lines once more (sample 1):
Oligonucleotide	log fluorescence
TTAGGTCTCCTTATCCTTGAGTGCTAG	-0.278 z-score
TTAAATATCAGTCTCGATTAGTGCTAG	2.49 z-score
TTAGGACTGGGTTTTCGGTTAGTGCTA	4.5 z-score
GACGATATCAATCTCGAGACGTGCTAG	1.04 z-score
